Published values pooled from the literature.
A part holds a random share of what one study measured. “And” joins repeats or separate records; there may be more than shown.
Chain of UniProt Q8TDC3 (whole entry, looked up): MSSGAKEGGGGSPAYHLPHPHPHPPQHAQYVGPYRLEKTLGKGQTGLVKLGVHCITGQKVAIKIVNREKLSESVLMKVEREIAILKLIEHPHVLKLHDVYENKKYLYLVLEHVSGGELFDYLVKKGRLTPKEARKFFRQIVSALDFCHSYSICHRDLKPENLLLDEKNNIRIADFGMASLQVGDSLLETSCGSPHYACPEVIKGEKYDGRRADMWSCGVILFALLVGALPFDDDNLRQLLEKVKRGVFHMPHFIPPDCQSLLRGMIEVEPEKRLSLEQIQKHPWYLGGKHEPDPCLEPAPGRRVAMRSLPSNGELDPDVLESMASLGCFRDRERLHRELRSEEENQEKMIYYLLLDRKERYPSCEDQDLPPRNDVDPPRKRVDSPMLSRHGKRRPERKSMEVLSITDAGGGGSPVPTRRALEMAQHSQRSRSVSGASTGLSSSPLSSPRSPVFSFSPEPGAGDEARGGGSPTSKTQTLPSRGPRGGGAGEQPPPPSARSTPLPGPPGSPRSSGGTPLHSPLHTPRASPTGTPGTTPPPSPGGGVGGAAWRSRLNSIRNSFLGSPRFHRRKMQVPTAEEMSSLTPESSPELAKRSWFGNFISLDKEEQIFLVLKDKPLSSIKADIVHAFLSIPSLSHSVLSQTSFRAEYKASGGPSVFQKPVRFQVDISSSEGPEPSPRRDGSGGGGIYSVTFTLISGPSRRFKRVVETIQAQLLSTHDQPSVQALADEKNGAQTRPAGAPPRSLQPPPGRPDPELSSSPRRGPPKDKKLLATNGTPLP
Chain of UniProt O75388 (whole entry, looked up): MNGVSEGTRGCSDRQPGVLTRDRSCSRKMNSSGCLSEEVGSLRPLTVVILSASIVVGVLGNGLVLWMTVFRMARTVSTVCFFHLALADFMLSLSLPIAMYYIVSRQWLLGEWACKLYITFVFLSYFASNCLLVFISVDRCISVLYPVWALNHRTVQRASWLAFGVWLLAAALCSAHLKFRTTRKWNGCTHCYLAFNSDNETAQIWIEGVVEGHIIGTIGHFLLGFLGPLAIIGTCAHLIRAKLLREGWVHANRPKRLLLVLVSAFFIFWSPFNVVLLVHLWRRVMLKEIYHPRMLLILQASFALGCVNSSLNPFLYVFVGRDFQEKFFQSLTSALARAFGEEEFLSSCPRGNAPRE
Chain of UniProt Q9H422 (whole entry, looked up): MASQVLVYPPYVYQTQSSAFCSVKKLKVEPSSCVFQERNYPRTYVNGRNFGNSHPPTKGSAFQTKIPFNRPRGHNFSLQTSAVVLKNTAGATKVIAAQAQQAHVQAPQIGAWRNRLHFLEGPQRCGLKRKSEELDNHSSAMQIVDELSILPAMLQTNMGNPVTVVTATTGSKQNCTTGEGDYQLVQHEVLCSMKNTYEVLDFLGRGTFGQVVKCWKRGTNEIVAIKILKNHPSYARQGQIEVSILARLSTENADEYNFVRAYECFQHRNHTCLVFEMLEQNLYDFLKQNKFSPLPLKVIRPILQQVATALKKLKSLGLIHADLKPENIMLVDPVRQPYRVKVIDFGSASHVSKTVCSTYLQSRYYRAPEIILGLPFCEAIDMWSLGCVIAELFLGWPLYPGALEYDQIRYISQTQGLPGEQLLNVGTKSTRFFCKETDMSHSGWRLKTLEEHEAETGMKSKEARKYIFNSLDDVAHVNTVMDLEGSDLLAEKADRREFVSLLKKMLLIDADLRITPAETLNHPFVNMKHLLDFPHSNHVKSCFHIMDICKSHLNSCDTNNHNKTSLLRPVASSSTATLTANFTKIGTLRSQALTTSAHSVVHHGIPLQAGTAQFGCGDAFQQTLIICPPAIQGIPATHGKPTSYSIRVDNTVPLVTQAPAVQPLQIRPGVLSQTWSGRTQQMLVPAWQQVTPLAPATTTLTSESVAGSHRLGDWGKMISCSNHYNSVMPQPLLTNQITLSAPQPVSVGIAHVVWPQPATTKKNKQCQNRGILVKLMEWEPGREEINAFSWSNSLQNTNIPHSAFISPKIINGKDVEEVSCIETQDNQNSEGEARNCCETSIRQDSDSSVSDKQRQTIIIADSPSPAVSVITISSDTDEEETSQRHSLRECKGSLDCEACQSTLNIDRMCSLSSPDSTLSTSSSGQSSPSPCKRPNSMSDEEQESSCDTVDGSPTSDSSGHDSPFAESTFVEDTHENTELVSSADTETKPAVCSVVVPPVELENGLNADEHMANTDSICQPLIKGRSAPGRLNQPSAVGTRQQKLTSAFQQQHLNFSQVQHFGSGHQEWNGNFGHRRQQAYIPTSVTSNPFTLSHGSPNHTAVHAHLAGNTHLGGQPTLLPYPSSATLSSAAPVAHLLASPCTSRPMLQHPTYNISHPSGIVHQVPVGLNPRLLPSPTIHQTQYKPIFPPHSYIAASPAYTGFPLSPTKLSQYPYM

Set 1 — mode: inhibitor; concentration: 10 µM; relative to: control
Target: Diamine acetyltransferase 1 (Homo sapiens, UniProt P21673)
Residues (P21673 1-171): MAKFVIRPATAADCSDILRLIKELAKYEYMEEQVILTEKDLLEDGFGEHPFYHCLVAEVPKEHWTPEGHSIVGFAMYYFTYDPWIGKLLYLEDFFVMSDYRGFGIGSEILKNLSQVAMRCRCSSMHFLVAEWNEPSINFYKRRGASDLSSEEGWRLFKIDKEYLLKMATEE
Compound	remaining activity [%]
C=C(C)[C@@H]1CC=C(C)CC1	87.2
O=C(CCCCCCCCc1ccccc1)c1c(O)cccc1O	106
O[C@]12CO[C@H](c3ccc4c(c3)OCO4)[C@H]1CO[C@@H]2c1ccc2c(c1)OCO2	84.2
COc1ccccc1O	85.8
C=C1CC[C@H]2C[C@@H]1C2(C)C	112
CCCCC/C=C/C(=O)O	91.5
O=C(O)[C@@H]1CCCCN1	102
CC(C)(O[C@@H]1O[C@H](CO)[C@@H](O)[C@H](O)[C@H]1O)[C@@H]1CC[C@](C)([C@H]2[C@@H](O)C[C@@]3(C)[C@@H]4C[C@H](O)[C@H]5C(C)(C)[C@@H](O[C@@H]6OC[C@@H](O)[C@H](O)[C@H]6O)CC[C@@]56C[C@@]46CC[C@]23C)O1	123
COc1c(/C=C/C(=O)c2ccc(O)c(CC=C(C)C)c2)ccc(O)c1O	89.8
CCCCCCCCCCCCCCCCCCCCCC(=O)O	94.1

Set 2 — mode: degrader
Structure (SMILES): O=C1CCC(N2Cc3cc(C4CCN(Cc5ccccc5)CC4)ccc3C2=O)C(=O)N1 (stereo not shown)
CRBN/Zinc finger protein Helios: CRBN/Zinc finger protein Helios (Homo sapiens, UniProt Q96SW2+Q9UKS7)
Chain of UniProt Q96SW2 (whole entry, looked up): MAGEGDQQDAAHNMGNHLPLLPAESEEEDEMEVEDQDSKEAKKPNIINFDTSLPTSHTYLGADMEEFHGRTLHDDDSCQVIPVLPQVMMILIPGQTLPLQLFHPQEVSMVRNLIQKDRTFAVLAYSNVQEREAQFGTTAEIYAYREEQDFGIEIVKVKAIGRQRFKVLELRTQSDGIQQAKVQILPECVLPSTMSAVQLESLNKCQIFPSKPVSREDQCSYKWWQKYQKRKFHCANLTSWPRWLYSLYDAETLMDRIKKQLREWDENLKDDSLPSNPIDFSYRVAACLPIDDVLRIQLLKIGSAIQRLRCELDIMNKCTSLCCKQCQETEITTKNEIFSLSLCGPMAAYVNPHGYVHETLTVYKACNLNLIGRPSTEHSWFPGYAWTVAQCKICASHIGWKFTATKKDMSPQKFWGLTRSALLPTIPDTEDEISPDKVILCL
Chain of UniProt Q9UKS7 (whole entry, looked up): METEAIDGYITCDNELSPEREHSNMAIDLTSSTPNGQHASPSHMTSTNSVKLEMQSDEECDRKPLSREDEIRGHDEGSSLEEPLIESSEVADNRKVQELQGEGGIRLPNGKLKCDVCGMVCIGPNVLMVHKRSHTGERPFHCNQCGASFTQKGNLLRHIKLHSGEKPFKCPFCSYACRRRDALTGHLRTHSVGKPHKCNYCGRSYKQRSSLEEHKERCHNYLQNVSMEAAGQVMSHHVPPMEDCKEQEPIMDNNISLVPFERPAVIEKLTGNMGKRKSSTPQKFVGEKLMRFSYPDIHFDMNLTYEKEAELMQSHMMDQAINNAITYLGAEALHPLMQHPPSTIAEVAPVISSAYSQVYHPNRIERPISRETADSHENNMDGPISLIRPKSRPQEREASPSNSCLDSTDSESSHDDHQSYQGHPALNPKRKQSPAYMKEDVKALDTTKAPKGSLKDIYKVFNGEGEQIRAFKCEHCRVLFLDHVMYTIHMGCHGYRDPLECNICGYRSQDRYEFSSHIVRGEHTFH
GSPT1: Eukaryotic peptide chain release factor GTP-binding subunit ERF3A (GSPT1, Homo sapiens, UniProt P15170)
Chain of UniProt P15170 (whole entry, looked up): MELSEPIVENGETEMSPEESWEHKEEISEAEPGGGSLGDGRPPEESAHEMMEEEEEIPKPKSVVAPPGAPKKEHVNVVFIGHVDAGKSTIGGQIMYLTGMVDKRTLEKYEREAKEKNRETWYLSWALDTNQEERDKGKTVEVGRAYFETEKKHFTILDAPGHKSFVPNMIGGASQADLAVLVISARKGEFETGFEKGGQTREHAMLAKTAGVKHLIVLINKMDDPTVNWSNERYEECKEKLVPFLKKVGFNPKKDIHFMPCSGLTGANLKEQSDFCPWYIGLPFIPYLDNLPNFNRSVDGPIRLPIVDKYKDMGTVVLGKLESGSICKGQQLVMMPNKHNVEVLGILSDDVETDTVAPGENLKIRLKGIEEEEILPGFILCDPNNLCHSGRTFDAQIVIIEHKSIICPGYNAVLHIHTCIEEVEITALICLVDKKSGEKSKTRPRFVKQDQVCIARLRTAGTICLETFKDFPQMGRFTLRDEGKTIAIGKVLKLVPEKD
DNA-binding protein Ikaros: DNA-binding protein Ikaros (Homo sapiens, UniProt Q13422)
Chain of UniProt Q13422 (whole entry, looked up): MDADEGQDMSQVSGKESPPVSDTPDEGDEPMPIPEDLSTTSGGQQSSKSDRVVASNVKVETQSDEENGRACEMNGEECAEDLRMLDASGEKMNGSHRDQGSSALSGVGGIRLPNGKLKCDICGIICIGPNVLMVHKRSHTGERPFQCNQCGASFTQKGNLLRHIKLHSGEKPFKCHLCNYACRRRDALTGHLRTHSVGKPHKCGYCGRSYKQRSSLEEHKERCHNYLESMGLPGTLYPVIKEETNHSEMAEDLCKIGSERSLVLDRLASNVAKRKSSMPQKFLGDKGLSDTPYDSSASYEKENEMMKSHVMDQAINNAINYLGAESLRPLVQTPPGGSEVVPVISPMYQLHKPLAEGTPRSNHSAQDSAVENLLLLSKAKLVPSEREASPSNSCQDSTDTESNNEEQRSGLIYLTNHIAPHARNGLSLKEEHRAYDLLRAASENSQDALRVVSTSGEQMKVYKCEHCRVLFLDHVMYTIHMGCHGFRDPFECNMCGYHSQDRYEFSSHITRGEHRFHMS
Zinc finger protein Aiolos: Zinc finger protein Aiolos (Homo sapiens, UniProt Q9UKT9)
Chain of UniProt Q9UKT9 (whole entry, looked up): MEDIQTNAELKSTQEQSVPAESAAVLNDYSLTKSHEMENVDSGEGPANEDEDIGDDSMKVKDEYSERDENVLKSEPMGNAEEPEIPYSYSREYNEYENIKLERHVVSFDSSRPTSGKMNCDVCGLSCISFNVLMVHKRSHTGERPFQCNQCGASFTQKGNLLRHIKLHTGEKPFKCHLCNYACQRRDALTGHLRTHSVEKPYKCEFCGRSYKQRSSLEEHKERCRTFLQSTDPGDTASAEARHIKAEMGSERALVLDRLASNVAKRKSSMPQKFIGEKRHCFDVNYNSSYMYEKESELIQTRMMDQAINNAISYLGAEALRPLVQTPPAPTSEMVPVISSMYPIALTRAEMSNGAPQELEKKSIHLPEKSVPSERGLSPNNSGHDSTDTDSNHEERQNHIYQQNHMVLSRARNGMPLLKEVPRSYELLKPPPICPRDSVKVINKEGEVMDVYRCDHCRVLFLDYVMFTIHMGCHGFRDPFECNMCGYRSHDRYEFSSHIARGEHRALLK
target	method	cells	concentration	time	remaining protein
CRBN/Zinc finger protein Helios	flow cytometry	primary human regulatory T cells	1 µM	6 h	46.5%
CRBN/Zinc finger protein Helios	flow cytometry	primary human regulatory T cells	0.0001524 µM	6 h	104%
GSPT1	HiBiT	HEK293	0.0005081 µM	6 h	108%
DNA-binding protein Ikaros	HiBiT	HEK293	0.0005081 µM		103% and 98.3%
GSPT1	HiBiT	HEK293	1.111 µM	6 h	124%
CRBN/Zinc finger protein Helios	flow cytometry	primary human regulatory T cells	0.01235 µM	3 h	107%
GSPT1	HiBiT	HEK293	0.04115 µM	6 h	91.4%
Zinc finger protein Aiolos	HiBiT	HEK293	0.0005081 µM	6 h	87.9%
CSNK1A1 (Homo sapiens, UniProt P48729)	HiBiT	HEK293	0.001524 µM	6 h	90%
DNA-binding protein Ikaros	HiBiT	HEK293	0.01372 µM		94.7% and 97.1%
DNA-binding protein Ikaros	HiBiT	HEK293	0.0001694 µM		94.1% and 83.6%
Zinc finger protein Aiolos	HiBiT	HEK293	1.111 µM	6 h	85%
Zinc finger protein Eos (IKZF4, Homo sapiens, UniProt Q9H2S9)	HiBiT	HEK293	0.3333 µM	3 h	126%
Sal-like protein 4 (SALL4, Homo sapiens, UniProt Q9UJQ4)	HiBiT	HEK293	1.111 µM	6 h	47.9%
DNA-binding protein Ikaros	HiBiT	HEK293	1.111 µM		100% and 108%
CRBN/Zinc finger protein Helios	flow cytometry	primary human regulatory T cells	0.01235 µM	6 h	86.8%

Set 3 — effect on: β-arrestin recruitment; mode: agonist; method: PRESTO-Tango; concentration: 10 µM; relative to: untreated
SMILES: N=C(N)NC(=O)c1cnn(-c2cccc3ncccc23)c1C1CC1
target	fold over basal
PTGIR (Homo sapiens, UniProt P43119)	0.96
GPR55 (Homo sapiens, UniProt Q9Y2T6)	1.06
GPR32 (Homo sapiens, UniProt O75388)	1.04
CASR (Homo sapiens, UniProt P41180)	1.27
GPR52 (Homo sapiens, UniProt Q9Y2T5)	1.21
TRHR (Homo sapiens, UniProt P34981)	1.04 fold
MCHR1 (Homo sapiens, UniProt Q99705)	1.23
ADGRG2 (Homo sapiens, UniProt Q8IZP9)	1.17
LPAR2 (Homo sapiens, UniProt Q9HBW0)	1.53

Set 4 — Structure (SMILES): Nc1ncnc2c1cnn2-c1ccccc1; effect on: enzyme activity; mode: inhibitor; concentration: 0.5 µM; relative to: control
target	remaining activity [%]
CDK7 (Homo sapiens, UniProt P50613)	102
PTK2B (Homo sapiens, UniProt Q14289)	108
HIPK3 (Homo sapiens, UniProt Q9H422)	97.6
MAPK10 (Homo sapiens, UniProt P53779)	100
NEK9 (Homo sapiens, UniProt Q8TD19)	110
MAP3K8 (Homo sapiens, UniProt P41279)	98.6
NTRK3 (Homo sapiens, UniProt Q16288)	93.6
GRK5 (Homo sapiens, UniProt P34947)	104
PRKD1 (Homo sapiens, UniProt Q15139)	98.1
BRSK1 (Homo sapiens, UniProt Q8TDC3)	90.2
CAMK1G (Homo sapiens, UniProt Q96NX5)	102
SLK (Homo sapiens, UniProt Q9H2G2)	98
Cyclin-dependent kinase 2, with cyclin A (CDK2, Homo sapiens, UniProt P24941)	108
PKN2 (Homo sapiens, UniProt Q16513)	125
MAP3K2 (Homo sapiens, UniProt Q9Y2U5)	89.5
CAMK1D (Homo sapiens, UniProt Q8IU85)	95.6
ROCK2 (Homo sapiens, UniProt O75116)	83.2
EGFR (Homo sapiens, UniProt P00533)	73
DYRK4 (Homo sapiens, UniProt Q9NR20)	98.4
DMPK (Homo sapiens, UniProt Q09013)	106
RET (Homo sapiens, UniProt P07949)	98.2
Aurora kinase A (AURKA, Homo sapiens, UniProt O14965)	91.9
ROS1 (Homo sapiens, UniProt P08922)	94.2

For quick reference, copied from above (set 2):
target	method	cells	concentration	time	remaining protein
Sal-like protein 4 (SALL4, Homo sapiens, UniProt Q9UJQ4)	HiBiT	HEK293	1.111 µM	6 h	47.9%
Zinc finger protein Aiolos	HiBiT	HEK293	0.0005081 µM	6 h	87.9%
CRBN/Zinc finger protein Helios	flow cytometry	primary human regulatory T cells	1 µM	6 h	46.5%
CRBN/Zinc finger protein Helios	flow cytometry	primary human regulatory T cells	0.0001524 µM	6 h	104%
DNA-binding protein Ikaros	HiBiT	HEK293	1.111 µM		100% and 108%
DNA-binding protein Ikaros	HiBiT	HEK293	0.01372 µM		94.7% and 97.1%
Zinc finger protein Eos (IKZF4, Homo sapiens, UniProt Q9H2S9)	HiBiT	HEK293	0.3333 µM	3 h	126%
Zinc finger protein Aiolos	HiBiT	HEK293	1.111 µM	6 h	85%
GSPT1	HiBiT	HEK293	0.04115 µM	6 h	91.4%
